Assay results gathered from unrelated publications.
Each line is one published result; not all experiments were run side by side.

`COc1cc(Nc2ncc3c(n2)-c2ccc(Cl)cc2C(c2c(F)cccc2OC)=NC3)ccc1C(=O)O`: “patients with adverse event” 21% (measured: Anorexia, grade 1; cancer patients, phase 1/2; oral, dose not given, with: pembrolizumab).
`COc1cc2nccc(Oc3ccc(NC(=O)c4cc5c(n(-c6ccccc6)c4=O)CCCC5=O)nc3)c2cc1OC`: “TEAEs, drug-related, patients with” 60% (patients with relapsed/refractory AML; oral, 3 mg once daily).
`C[C@@H](Nc1cc(F)cc(F)c1)c1cc(C(=O)N(C)C)cc2c(=O)cc(N3CCOCC3)oc12` — result for “patients discontinuing for AE”: 0% (measured: Hematuria; advanced solid tumour patients; oral, dose not given, dose finding).
`C=CC(=O)Nc1cc(Nc2nccc(-c3cn(C)c4ccccc34)n2)c(OC)cc1N(C)CCN(C)C`: “patients with adverse events” 1% (measured: treatment-related grade ≥3 Dyspnea; EGFR-mutant MET-altered NSCLC; oral, dose not given, all).
`C=CC(=O)NC1CCN(c2ncc3ncnc(Nc4ccc(Oc5ccc6c(c5)ncn6C)c(C)c4)c3n2)CC1` — result for “patients with Lymphadenopathy”: 0% (male patients; oral, dose not given, on-treatment adverse events).
`CCOc1c([C@H](C)n2nc(C)c3c(N)ncnc32)cc(Cl)c(F)c1[C@@H]1CNC(=O)C1` gave a patients of 0% (measured: QTcF above 500 ms; previously treated B-cell malignancy; oral, 10 mg once daily, baseline QTcF ≤450 ms).
`O=C(Nc1nc2cccc(-c3ccc(CN4CCS(=O)(=O)CC4)cc3)n2n1)C1CC1` — result for “patients with adverse event”: 0% (measured: bile reflux into stomach; rheumatoid arthritis patients; oral, 300 mg once daily, 4 weeks, any relatedness).
Under “patients with adverse event”, `Cc1cc(NC2CCN(C(=O)OC3CCN(C(=O)/C=C/CN(C)C)C3)CC2)n2ncc(C(C)C)c2n1` (stereo not shown) is recorded as 6% (Phase I dose escalation CTCAE v4.0, measured: maculo-papular rash; patients with advanced solid tumours; dose not given, Total dosing any grade).
`NC(=O)N1c2ccccc2C=Cc2ccccc21` — result for “patients with Hyperhidrosis”: 7% (male patients; oral, dose not given, on-treatment adverse events).
`CNC(=O)c1cc(Oc2ccc(NC(=O)Nc3cc(C(C)(C)C)nn3-c3ccc4ncccc4c3)c(F)c2)ccn1`: “patients with grade 1 cardiac disorders” 7% (patients; oral, dose not given, cycles 1 and 2, Medium Cmax subgroup).
For `Cc1cc(-c2nnc(N)nc2-c2ccc(F)cc2)cc(Cl)n1`, “patients with immune-mediated AE” read 0% (measured: Arthritis; IO-naive mCRPC patients, male; oral, dose not given, treatment-related, grade 1).
`COc1ccc([C@@H](O)c2cc(-c3ncnc4cc(N5CCOCC5)ccc34)c(F)cc2Cl)nn1` — result for “patients with at least 1 TEAE”: 100% (locally advanced rectal cancer; all dose levels overall, with: capecitabine and radiotherapy).
`C[C@@H](c1ccc2nccn2c1)n1nnc2ncc(-c3cnn(C)c3)nc21`: “patients with treatment-related AEs” 0% (measured: Pain grade ≥3; EGFR-mutant MET-altered NSCLC; oral, dose not given, study).
For `CCO[C@H]1CCN(Cc2c(OC)cc(C)c3[nH]ccc23)[C@H](c2ccc(C(=O)O)cc2)C1`, “patients with adverse event” read 33.3% (measured: Cough; PNH patients, active haemolysis; oral, 200 mg twice daily, extension phase).
`FC(F)(F)c1ccc(CNc2ccc(Cc3c[nH]c4ncc(Cl)cc34)cn2)cn1` — result for “patients with treatment-related adverse event”: 35% (measured: at least 1 adverse event; non-TGCT solid tumour patients; oral, 1000 mg/day, grade 3 or higher).
`CNC(=O)c1ccc(-c2cnc3ncc(Cc4ccc5ncccc5c4)n3n2)cc1F`: “patients with adverse event” 24% (measured: Diarrhea, all grades; cancer patients; oral, 600 mg twice daily, expansion cohort, any causality).

Some of these lines once more:
`O=C(Nc1nc2cccc(-c3ccc(CN4CCS(=O)(=O)CC4)cc3)n2n1)C1CC1` — result for “patients with adverse event”: 0% (measured: bile reflux into stomach; rheumatoid arthritis patients; oral, 300 mg once daily, 4 weeks, any relatedness).
